Results collected from several papers.
A part holds a random share of what one study measured. Positions count from the first letter of the parent shown.

Series 1
Target: ATF3, bZIP domain (human)
Method: DHFR protein complementation
Matrix: yeast
Notes: single substitutions, most at no-binding floor
Relative to: wild-type JUN-FOS pair
Direction: higher = stronger binding
Starting sequence: JUN, bZIP domain (human); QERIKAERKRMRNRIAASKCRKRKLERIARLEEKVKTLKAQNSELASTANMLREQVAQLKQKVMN; partner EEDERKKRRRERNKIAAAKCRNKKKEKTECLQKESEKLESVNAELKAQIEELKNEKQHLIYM
Change | binding fitness
M51W | -0.324 natural log
E54N | -0.268 natural log
A46Y | -0.253 natural log
A40P | -1.37 natural log
I28D | -0.322 natural log
V35K | -0.87 natural log
Q41A | -0.172 natural log
R53A | -0.125 natural log
A29N | -0.197 natural log
N42D | -1.38 natural log
L38I | -0.704 natural log
L52C | -1.33 natural log
K34H | 0.00943 natural log
R53H | -0.416 natural log
A46R | -0.0648 natural log
R30Q | 0.00973 natural log

Series 2
Target: CCNA2, cyclin fold, Cln2 fusion (human)
Method: yeast growth competition, sequencing
Matrix: yeast
Notes: weak parent motif
Relative to: not given
Direction: higher = stronger binding
Starting sequence: SLBP docking peptide (human); ARYKRKLLINDFG
Change | normalised enrichment score
ARTKRKLLINDFG [Y3T] | 1.17
ARYKRGLLINDFG [K6G] | 1.05
ARYKRKLWINDFG [L8W] | 2.28
ARYHRKLLINDFG [K4H] | 1.38
ARHKRKLLINDFG [Y3H] | 0.963
ARYKRKLPINDFG [L8P] | 0.746
ARYKRKLLITDFG [N10T] | 1.21
ARYKRHLLINDFG [K6H] | 0.015
ARYKRKLLINDFD [G13D] | 0.487
AWYKRKLLINDFG [R2W] | 1.17
ARYKRKLLIPDFG [N10P] | 1.31
ARYKRKLLINDFR [G13R] | -0.0625
ARYKRLLLINDFG [K6L] | 1.9
ARYKRKDLINDFG [L7D] | 1.12
ARYKRKLLINDKG [F12K] | 1.27
ARRKRKLLINDFG [Y3R] | 0.927
ARYKRNLLINDFG [K6N] | 2.76
ARYKRKLLMNDFG [I9M] | 1.03
ARYKRKLLINWFG [D11W] | 1.2
ADYKRKLLINDFG [R2D] | 1.07
ARYKRKFLINDFG [L7F] | 0.815
VRYKRKLLINDFG [A1V] | 0.87
ARYKRKLQINDFG [L8Q] | 1.17
ARYKRKVLINDFG [L7V] | 1.79
ARYKRKLLINDVG [F12V] | 0.74

Series 3
Target: RNA binding protein fox-1 homolog 2, RRM domain, GST-SBP tag (RBFOX2, Homo sapiens, UniProt O43251-10, residues 100-194)
Method: RNA Bind-n-Seq
Form: RNA
Matrix: in vitro
Concentration: 365 nM
Notes: natural RNA segment, single round, ends assumed
Relative to: no-protein control
Direction: higher = stronger binding
Target sequence (chain): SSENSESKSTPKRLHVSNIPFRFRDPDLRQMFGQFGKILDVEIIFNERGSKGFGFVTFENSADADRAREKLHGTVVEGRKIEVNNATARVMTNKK
Strand | RBNS enrichment (R)
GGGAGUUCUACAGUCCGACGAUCGUCUCUGUGGUUCUGCACAGAUUUUGGAAGGUCUUCACUACUCUUGGAAACAAACCCAUGAAUGAAGAAGAAACUCUUAAAAUGGUUCUGUCUGCACUGAUUCAAAGAGGUGGAAUUCUCGGGUGCCAA | 0.872
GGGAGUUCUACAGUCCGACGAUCAGCAGCGACUCAAGGGCCGUGUGUACAUAUGUAAAUGAGAAAUAGACAUGUCAACAAGAUACAUUCAUUUCUCCCGGAAUGUGUAUUGUUUUUAUUUUACAAAACAGAGAUGGAAUUCUCGGGUGCCAA | 0.505
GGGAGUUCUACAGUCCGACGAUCAGAGGUGGACGCGGCCGAGAGCCCUACAGAGAAGCUGGCUGGUAGGACCCGCAGGGACCAGCUGACCAGGCUUGUGCUCAGAGAAGCAGACAAAACAAAGAUUCAAGGUUUGGAAUUCUCGGGUGCCAA | 0.432
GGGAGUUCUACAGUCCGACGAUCUUGUUUUGGAGGAACCCUGGUGGUUUGACAGCCAGGAGAAAGGCCAUAUGUGAAACCAGUCUCUUGUGGAGAUUGGAAAUCCUCCCUGAUAUUUGGGCAGAGCCUAAACGUGGAAUUCUCGGGUGCCAA | 0.428
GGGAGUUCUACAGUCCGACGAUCGUCCCUUUCCCUUUAUAUUUGAGAUGAGGUCUAGAUAUGUAGUCCUGCCUGGCCUCCAAUUUGUAAUCCUCCUGCCUCAGCCUUGAGUGCUGGAAUUGAGUGUGUGCCACUGGAAUUCUCGGGUGCCAA | 0.411
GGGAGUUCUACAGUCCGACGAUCUUCUGAGUGACAUGGGUGUGCCAGGCUAGACUAGGAGGUUCCGGUGUCUGGAAAAGCACUUUACAGAUGAGAUUCCCUCUCCUCCCCCACCUUCAAGCACCCUGUUCCCUUGGAAUUCUCGGGUGCCAA | 0.299
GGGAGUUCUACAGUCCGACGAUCAGCCCCCAGGCCAGGUGAGGUCCACCGGCCCCUGGCAGCACAGCCCAGGGCCUGCAUGGGGGCACCGGGCUCCAUGCCUCUGGAGGCCUCUGGCCCUCGGUGGCUGCACAUGGAAUUCUCGGGUGCCAA | 0.661
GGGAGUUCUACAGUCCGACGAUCAUUGCAAAUCUUCUAGAAGUUCUCCCCCAAAUCAGGUCAAUGUGUGCCCUCCUGAGCUCCCACCCAGGCAUCUCCAGUGCUCAUGAUCAUGUGUCCCCCAACUCCACCCCUGGAAUUCUCGGGUGCCAA | 0.553
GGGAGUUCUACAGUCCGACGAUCAAUUUCAUGGUUGUACUUCUUAGAUUUAAUUUCUAGGCCAACACGUUAUCUUAAGGUGCAGUUUUAAGGUUCAGGCAUGCGCUCUGGCUCAUAGUGUUUGAAAGUGAUGUUGGAAUUCUCGGGUGCCAA | 0.673
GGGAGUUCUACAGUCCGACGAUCUCUUGCAAGAAAUUCCUAAUUCUUCUGCUGACUUGGAGCUCGCUGCCACAGACAGCACAGCCCUUGCCCAGAAGCAGCUGAACAAUUCCUAACCCAUUUCAUCUCGGUUCUGGAAUUCUCGGGUGCCAA | 0.247
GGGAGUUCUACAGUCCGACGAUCGGUUUUGUUUUGUUUUGUUUUGUUUUUUGUUUAAGUCGAGAUAUAAAAACUGAACACGAUAACACUUACUCUUAAAUCAAGCAUCAACACUUUUUCCCUGUUAGAAUUCUUGGAAUUCUCGGGUGCCAA | 0.636
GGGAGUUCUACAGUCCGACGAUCCCAUGUUUGCUCUAAAUUAAGACAGCAUUGAUCUCCUGGAGGCUGGUUCUGCUGCCUCUACACAGGGGCCCUGUACAGUGAAUGGUGCCAUUUUCGAAGGAGCAGUGUGAUGGAAUUCUCGGGUGCCAA | 0.474

Series 4
Target: Interferon regulatory factor 7, full length, phosphomimetic (IRF7, Homo sapiens, UniProt Q92985, residues 1-503, S471D/S472D/S475D/S476D/S477D/S483D/S484D/S487D)
Method: protein-binding microarray
Form: double-stranded DNA, one strand shown
Matrix: in vitro
Concentration: 2200 nM top
Notes: 60-bp whole probe
Together with: salmon DNA 0.4 mg/ml
Relative to: random background probes
Direction: higher = stronger binding
Constant ends, left off below: GCCTAGCAC … GTCTTGATTCGCTTGACGCTGCTG
Construct (chain): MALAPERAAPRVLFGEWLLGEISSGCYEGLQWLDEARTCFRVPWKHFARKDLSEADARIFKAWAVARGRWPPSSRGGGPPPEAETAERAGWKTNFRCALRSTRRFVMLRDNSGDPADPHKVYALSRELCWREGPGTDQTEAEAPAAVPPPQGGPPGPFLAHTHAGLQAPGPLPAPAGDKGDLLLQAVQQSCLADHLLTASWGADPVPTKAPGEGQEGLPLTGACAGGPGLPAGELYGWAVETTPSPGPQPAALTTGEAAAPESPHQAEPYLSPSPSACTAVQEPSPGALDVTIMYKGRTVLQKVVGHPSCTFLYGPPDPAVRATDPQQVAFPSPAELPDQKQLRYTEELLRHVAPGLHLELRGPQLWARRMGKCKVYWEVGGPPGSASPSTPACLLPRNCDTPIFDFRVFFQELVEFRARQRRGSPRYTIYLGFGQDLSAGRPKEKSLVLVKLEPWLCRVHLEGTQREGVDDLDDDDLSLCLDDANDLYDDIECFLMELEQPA
Strand | fitted relative affinity [z-score]
GCCGATATCAGACTGGAGACGTGCTAG | 0.00385
TGAGTTTTCCTTCATGTGCCGTGCTAG | 1.6
GACGGTTTCGGGACTGGGGAGGTGCTA | 3.63
GACGGTATCGGGTTTTGGGACGTGCTA | 0.249
GACGATTTCAGTATCGTGACGTGCTAG | 0.816
GACGTTTTCGGGTTTCGAGACGTGCTA | 8.83
TCAGATGTGTATATGACACTGTGCTAG | 0.308
GACGGACTGGACTATCGGGCCGTGCTA | -0.867
GACGATCACAGTCTCGAGACGTGCTAG | 0.208
TCATATATATCATTTAAACTGTGCTAG | 0.653
TTAGATTTCTGACTGGATTAGTGCTAG | 0.143
TCATTTTACATTATTACACTGTGCTAG | 2.39
TTCTACTTCTGTTTTTGCTTGTGCTAG | 2.72
GTCGGTCTCGGACTGGGGACGTGCTAG | -0.133
CGCCCACTCATGCCTCTTAAGGTGCTA | 0.658
TCACTTTTCAGTCCCCTACTGTGCTAG | 3.97
TACAGGTTCTCTTTTATTTTGTGCTAG | 1.15
GACGGATTCGACTTTCGGGACGTGCTA | 4.17
TTAGGACTGGGGTATCGGTTTGTGCTA | 0.28
AGGACTCGAATCCTGCAGGGGTGCTAG | 0.352

Series 5
Target: ABI1, truncated, D143A, DHFR fusion (Arabidopsis thaliana)
Method: DHFR PCA, deep sequencing
Matrix: yeast
Notes: methotrexate growth selection, single substitutions
Together with: (+)-ABA 58 µM
Relative to: wild-type fitted maximum
Direction: higher = stronger binding
Starting sequence: PYL1, truncated, DHFR fusion (Arabidopsis thaliana); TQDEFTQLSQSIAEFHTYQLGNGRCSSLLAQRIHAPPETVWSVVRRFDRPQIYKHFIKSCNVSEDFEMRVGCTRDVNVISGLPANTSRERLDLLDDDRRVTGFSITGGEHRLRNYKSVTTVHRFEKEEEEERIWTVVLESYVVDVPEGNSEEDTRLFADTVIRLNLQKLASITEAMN
Change | relative binding score [%]
R163W | 24.8
V118H | 85.6
R155E | 37.4
L166H | 64
N149P | -1
Y141I | 1.38
Q10N | 92.2
L20G | 92.1
E147H | 83.5
G107E | 66.7
R32G | 52.5
H34M | 94.5
L8H | 51.9
S59K | 74.1
G21Y | 77.7
R123V | 75.3
T120I | 7.27

Series 6
Target: Sal-like protein 4, full length isoform A (SALL4, Homo sapiens, UniProt Q9UJQ4, residues 1-1053)
Chain of UniProt Q9UJQ4 (whole entry, looked up): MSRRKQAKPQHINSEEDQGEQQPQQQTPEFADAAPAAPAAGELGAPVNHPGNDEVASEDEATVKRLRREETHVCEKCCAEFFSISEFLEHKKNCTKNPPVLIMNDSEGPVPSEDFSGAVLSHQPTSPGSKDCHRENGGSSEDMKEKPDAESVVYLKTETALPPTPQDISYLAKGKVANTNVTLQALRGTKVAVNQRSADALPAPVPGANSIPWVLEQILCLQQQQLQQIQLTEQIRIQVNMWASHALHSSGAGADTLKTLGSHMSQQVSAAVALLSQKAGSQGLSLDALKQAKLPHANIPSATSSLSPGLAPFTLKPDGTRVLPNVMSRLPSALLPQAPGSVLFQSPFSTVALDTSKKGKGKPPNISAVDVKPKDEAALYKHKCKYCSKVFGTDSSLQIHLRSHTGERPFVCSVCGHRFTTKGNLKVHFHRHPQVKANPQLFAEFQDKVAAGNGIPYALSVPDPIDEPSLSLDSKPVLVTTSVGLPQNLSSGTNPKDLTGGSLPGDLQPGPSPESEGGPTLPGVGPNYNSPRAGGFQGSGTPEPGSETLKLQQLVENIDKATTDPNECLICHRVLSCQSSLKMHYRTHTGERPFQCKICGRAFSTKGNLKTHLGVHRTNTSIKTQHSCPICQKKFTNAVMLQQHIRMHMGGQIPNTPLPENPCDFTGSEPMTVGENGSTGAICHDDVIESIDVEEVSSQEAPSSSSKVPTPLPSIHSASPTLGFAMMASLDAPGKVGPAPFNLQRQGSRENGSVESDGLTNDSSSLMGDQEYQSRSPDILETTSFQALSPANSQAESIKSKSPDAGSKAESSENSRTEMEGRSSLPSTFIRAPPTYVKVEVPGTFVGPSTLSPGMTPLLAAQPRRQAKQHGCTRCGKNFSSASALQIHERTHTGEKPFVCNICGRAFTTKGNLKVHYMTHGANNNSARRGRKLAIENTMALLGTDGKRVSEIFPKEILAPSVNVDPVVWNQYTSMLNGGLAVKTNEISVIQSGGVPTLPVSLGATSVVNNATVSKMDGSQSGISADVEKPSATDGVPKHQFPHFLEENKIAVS
Method: universal PBM
Form: double-stranded DNA, one strand shown
Matrix: in vitro
Concentration: 600 nM
Notes: 8-mer, flanks averaged, mean of replicates
Direction: higher = stronger binding
Strand | E-score
CTACTGTC | 0.014
GCGACACC | -0.31
CCCAATCC | -0.243
GAACATCA | 0.0555
ACTTGCCT | -0.119
CGTTGCAC | -0.108
CTTGGGTA | 0.00396
CCGGGACA | -0.239
GGAGCACA | -0.0421
GTCGTCAA | -0.118
ACGAAGCC | -0.157
GATTACAC | 0.0712
CACCGGAG | -0.267
AGTCGCAG | -0.066
AGCAGACA | -0.105
AGGGCGGG | -0.135
ATGCGTGG | -0.169
CATGTCCA | 0.0657
TCATCCGA | 0.115
AGCAGCCC | -0.32
GGTTACAC | -0.0753

Other studies, line by line
Molecule | target | test | system | setting | how to read | endpoint | value
PhoQ, residues 284 288 289 292 302 303 SNSSNI | PhoP, residues 12 14 15 18 19 NHFRA (Escherichia coli, UniProt P23836) | Sort-seq, measured: YFP reporter | E. coli | PhoQ-PhoP variant library, together with: 10 µM Mg2+ | relative to: high Mg2+ state, higher = stronger signaling | fold induction | 0.893

Repeated from above (series 5):
Change | relative binding score [%]
L166H | 64
N149P | -1
Y141I | 1.38
Q10N | 92.2
L20G | 92.1
E147H | 83.5
G107E | 66.7
R32G | 52.5
H34M | 94.5
L8H | 51.9
S59K | 74.1
G21Y | 77.7
R123V | 75.3
T120I | 7.27
